# Measured values from different studies.
# Each numbered part is a random draw from the data of one study; scales do not carry over between parts.
# Sequence of UniProt P23458 (whole entry, looked up): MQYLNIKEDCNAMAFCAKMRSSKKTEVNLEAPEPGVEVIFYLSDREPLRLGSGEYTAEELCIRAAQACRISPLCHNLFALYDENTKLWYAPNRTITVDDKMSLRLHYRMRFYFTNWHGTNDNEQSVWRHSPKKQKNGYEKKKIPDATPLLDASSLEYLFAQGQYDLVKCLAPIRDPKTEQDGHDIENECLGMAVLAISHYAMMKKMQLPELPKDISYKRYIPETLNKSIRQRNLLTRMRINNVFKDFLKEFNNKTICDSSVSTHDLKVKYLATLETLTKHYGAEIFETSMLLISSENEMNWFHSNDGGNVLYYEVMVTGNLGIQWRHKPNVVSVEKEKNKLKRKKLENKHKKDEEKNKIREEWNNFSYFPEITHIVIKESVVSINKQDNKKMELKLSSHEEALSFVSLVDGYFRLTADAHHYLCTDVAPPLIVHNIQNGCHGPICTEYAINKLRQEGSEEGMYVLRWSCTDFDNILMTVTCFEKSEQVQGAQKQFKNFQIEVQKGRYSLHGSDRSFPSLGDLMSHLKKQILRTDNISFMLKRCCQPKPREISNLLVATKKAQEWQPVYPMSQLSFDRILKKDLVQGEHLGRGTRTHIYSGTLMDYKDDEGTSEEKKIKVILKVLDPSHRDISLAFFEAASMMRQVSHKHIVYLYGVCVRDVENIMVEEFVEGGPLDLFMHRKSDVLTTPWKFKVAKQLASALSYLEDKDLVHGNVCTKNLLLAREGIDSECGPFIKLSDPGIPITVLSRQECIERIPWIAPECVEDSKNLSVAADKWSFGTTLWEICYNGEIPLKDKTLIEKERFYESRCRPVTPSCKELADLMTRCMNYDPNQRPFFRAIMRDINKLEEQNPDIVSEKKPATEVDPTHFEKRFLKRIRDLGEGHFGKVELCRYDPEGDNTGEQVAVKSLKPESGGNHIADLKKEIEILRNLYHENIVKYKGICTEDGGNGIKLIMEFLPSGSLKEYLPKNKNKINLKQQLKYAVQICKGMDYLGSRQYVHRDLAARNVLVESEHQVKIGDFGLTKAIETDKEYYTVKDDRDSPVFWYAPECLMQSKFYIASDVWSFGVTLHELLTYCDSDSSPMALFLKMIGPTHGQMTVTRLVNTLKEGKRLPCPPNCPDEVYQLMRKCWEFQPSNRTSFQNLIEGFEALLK
# Sequence of UniProt Q52WX2 (whole entry, looked up): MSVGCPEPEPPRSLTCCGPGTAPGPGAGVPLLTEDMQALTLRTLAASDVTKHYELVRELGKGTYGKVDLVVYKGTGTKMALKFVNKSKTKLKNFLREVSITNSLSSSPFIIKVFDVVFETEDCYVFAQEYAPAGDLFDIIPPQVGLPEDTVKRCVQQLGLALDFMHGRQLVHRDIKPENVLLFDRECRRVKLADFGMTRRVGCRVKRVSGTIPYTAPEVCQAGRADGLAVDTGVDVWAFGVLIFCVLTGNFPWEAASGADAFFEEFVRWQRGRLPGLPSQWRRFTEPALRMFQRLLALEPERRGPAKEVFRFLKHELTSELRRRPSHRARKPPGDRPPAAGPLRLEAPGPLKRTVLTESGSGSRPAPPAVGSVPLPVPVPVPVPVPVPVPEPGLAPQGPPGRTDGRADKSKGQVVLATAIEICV
# Sequence of UniProt Q8NEB9 (whole entry, looked up): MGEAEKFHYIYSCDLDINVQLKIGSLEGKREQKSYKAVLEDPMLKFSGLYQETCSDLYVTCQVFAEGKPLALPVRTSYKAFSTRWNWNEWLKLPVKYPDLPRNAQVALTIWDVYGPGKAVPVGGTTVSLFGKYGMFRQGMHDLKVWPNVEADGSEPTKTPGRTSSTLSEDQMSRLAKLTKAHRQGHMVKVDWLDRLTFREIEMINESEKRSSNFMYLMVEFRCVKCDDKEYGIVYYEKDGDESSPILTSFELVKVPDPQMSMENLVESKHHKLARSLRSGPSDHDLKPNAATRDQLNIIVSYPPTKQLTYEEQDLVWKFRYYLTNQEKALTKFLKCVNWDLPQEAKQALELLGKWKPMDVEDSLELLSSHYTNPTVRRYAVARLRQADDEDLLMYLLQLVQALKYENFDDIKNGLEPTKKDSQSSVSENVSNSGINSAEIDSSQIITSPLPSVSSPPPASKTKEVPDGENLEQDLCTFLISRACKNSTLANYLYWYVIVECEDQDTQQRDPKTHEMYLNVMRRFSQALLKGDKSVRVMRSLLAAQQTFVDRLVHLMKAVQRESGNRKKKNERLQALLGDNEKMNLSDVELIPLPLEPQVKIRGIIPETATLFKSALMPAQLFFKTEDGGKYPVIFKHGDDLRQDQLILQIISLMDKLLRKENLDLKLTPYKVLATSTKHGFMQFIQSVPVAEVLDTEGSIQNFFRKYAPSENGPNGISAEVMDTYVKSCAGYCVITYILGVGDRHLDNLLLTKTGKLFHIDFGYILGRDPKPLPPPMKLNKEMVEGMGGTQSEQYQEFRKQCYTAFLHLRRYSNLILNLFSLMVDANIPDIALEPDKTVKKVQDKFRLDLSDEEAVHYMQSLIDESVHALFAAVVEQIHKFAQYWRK
# Sequence of UniProt Q14289 (whole entry, looked up): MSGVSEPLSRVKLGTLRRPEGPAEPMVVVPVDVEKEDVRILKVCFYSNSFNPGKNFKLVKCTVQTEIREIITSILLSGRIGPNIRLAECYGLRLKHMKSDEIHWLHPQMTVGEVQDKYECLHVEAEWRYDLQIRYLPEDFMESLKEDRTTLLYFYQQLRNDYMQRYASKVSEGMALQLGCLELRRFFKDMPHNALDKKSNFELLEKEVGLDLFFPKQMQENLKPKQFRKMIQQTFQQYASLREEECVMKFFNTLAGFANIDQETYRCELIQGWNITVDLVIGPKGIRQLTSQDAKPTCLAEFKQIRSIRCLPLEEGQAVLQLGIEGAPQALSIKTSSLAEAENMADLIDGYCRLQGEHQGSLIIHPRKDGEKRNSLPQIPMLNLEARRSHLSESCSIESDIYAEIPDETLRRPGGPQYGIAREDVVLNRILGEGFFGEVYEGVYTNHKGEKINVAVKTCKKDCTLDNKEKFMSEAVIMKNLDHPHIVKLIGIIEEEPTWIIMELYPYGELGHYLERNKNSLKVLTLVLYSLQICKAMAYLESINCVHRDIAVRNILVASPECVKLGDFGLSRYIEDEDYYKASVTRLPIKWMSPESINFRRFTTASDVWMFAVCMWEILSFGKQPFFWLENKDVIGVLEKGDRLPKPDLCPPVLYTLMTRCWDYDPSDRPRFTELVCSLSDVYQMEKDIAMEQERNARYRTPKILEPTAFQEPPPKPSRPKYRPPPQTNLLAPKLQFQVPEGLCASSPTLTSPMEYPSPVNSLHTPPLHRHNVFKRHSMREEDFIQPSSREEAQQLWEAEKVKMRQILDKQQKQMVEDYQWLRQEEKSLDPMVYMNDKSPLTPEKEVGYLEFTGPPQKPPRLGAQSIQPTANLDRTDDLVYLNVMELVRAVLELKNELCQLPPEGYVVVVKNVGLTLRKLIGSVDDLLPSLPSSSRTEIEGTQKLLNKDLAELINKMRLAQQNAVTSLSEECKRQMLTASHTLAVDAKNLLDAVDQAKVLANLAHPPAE
# Sequence of UniProt Q15569 (whole entry, looked up): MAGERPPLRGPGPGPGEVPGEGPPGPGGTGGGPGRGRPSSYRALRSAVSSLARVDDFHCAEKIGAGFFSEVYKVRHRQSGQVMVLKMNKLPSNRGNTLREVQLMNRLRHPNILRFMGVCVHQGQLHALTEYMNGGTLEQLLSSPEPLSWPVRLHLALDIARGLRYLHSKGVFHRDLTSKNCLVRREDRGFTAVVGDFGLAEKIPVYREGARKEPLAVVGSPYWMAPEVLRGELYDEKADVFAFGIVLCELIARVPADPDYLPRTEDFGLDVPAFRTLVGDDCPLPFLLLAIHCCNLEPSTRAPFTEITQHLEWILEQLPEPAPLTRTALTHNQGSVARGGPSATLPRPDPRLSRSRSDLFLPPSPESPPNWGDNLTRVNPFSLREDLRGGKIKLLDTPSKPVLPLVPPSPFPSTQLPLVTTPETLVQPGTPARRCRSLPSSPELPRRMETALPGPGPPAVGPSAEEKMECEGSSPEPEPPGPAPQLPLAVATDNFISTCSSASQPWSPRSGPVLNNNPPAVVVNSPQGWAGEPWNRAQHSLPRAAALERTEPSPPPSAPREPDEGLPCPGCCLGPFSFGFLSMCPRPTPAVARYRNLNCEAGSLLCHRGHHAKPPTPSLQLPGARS

# Set 1 — read-out: ligand displacement; concentration: 10 µM
# Target: Beta-2 adrenergic receptor (ADRB2, Homo sapiens, UniProt P07550)
# Sequence of UniProt P07550 (whole entry, looked up): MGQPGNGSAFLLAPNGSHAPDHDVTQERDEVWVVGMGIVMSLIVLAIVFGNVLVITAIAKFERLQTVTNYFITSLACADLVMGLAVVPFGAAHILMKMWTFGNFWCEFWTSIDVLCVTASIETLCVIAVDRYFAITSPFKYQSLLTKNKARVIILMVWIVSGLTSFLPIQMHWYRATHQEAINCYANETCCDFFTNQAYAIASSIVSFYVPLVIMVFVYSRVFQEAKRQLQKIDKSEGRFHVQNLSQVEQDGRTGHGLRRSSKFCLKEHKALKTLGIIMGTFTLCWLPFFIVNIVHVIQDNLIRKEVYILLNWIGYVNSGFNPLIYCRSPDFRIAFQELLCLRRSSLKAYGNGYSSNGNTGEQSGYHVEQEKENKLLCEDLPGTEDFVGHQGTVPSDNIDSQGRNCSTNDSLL
SMILES,inhibition
COc1cc(N[C@@H]2CCCC[C@]2(O)C(F)(F)F)ccc1F,22.2%
COc1cccc(NC(=O)c2nc3scc(CN(C)Cc4ccccc4)c3c(=O)[nH]2)c1,-6.81%
CS(=O)(=O)N1CCCC(NC(=O)[C@H](CCC2CCCCC2)NC(=O)c2ccc(CNC(=O)c3cnc4ccccn34)cc2)C1 (some centres unmarked),16.3%
CN(C)C(=O)c1sc2nc(N3CCC(S(C)(=O)=O)CC3)cc(C(F)(F)F)c2c1N,6.22%
COc1cc(-c2cn(C3CCc4c(F)cccc4N(CC(F)(F)F)C3=O)nn2)ccc1-n1cnc(C)c1 (centres unmarked),-5.61%
C[C@@H]1CN(c2cc(-c3n[nH]c4ccc(OC5(C)CC5)cc34)ncn2)C[C@H](C)O1,26.4%
Cc1noc([C@H]2C[C@@H](c3ccc(C(F)(F)F)cc3)CN(C(=O)N3CCS(=O)(=O)C3)C2)n1,24%
O=c1nc(-c2ccccn2)sc2ccccc12,-12.9%
CCOc1ccc(S(=O)(=O)Nc2ccc(Cl)cc2C#Cc2cnc(C(=O)O)cc2OC)c2ncccc12,14.8%
NS(=O)(=O)c1cc(NC(=O)Cc2ccccc2)ccc1Oc1cccc(Cl)c1,18.9%
COc1ccc2cc(OCC3(C(=O)O)CN(C(=O)c4ccc(F)cc4)C3)ccc2c1,-17.4%
CC1=C(C#N)C(c2ccc3[nH]nc(C)c3c2)C(C#N)=C(C)N1,20.2%
CN(C)c1ncnc(-c2ccc3nc(Nc4cc(CN5CCN(C(=O)CC(F)(F)F)CC5)ccn4)[nH]c3c2)c1Cl,12.6%
Cn1cc(Cl)c2c(Oc3c(F)cc(Nc4cc(Cl)nc(N)n4)cc3F)ccnc21,10.2%
CCC(=NO)C(C)=Cc1ccc(F)c(C)c1,-1.29%
CNC(=O)Nc1ccc2c(c1)CC[C@]21OC(=O)N(CC(=O)N(Cc2ccc(F)cc2)[C@@H](C)C(F)(F)F)C1=O,19%
COc1cc(C(=O)O)ncc1C#Cc1ccccc1NS(=O)(=O)c1cccc2c(N(C)C)ccnc12,-2.19%
Nc1nc(NCc2ccccc2)nc(-c2cccc(CO)c2)n1,18%
C[C@H](c1ccnc(Nc2nc3ccc(-c4cc(N(C)C)ncn4)cc3[nH]2)c1)N1CCN(C(=O)CC(F)(F)F)CC1,33.3%
c1ccc(C2CCN(c3cnc4c(N5CCOCC5)nccn34)CC2)cc1,8.86%
CN1CCN(C(=O)C(C)(C)c2ccc(C(=O)Nc3cn4cc(-c5cc(C(C)(C)C)cc(C(C)(C)C)c5)ccc4n3)cc2)CC1,17.2%
CC[C@H](CC(=O)O)n1c(=O)c2ncccc2n(Cc2cn(C)c3cc(C)cc(C)c23)c1=O,10.5%

# Set 2 — cell line: mouse MPNST tumor cells; technique: high-content nuclear imaging; measured: cell number; concentration: 10 µM; time: 12 h; setting: mean of 2 replicates; baseline: plate mean; direction: higher = more cells
Compound,nuclei count [z-score]
Cc1noc(NS(=O)(=O)c2cccc3c(N(C)C)cccc23)c1C,0.00915
O=C(O)Cc1ccc(-c2ccccc2)cc1,1.46
Cc1onc(-c2ccccc2Cl)c1C(=O)N[C@@H]1C(=O)N2[C@@H]1SC(C)(C)[C@@H]2C(=O)O,1.19
CCc1nn(CCCN2CCN(c3cccc(Cl)c3)CC2)c(=O)n1CCOc1ccccc1,2.09
COc1cc(Nc2ccnc3ccc(Br)cc23)cc(OC)c1OC,-4.57
Cc1nc(NC(=O)N2CCCC2C(N)=O)sc1-c1csc(C(C)(C)C)n1 (centres unmarked),2.92
CC(=NNC(=S)N1CCC1)c1ccccn1,-3.3
Nc1ccc(/N=N/c2ccccc2)c(N)n1,2.23
Nc1nc(=O)[nH]cc1F,2.27

# Set 3 — read-out: enzyme activity; action: inhibitor; concentration: 10 µM
# Target: Calcium/calmodulin-dependent protein kinase type II subunit alpha (CAMK2A, Homo sapiens, UniProt Q9UQM7)
# Sequence of UniProt Q9UQM7 (whole entry, looked up): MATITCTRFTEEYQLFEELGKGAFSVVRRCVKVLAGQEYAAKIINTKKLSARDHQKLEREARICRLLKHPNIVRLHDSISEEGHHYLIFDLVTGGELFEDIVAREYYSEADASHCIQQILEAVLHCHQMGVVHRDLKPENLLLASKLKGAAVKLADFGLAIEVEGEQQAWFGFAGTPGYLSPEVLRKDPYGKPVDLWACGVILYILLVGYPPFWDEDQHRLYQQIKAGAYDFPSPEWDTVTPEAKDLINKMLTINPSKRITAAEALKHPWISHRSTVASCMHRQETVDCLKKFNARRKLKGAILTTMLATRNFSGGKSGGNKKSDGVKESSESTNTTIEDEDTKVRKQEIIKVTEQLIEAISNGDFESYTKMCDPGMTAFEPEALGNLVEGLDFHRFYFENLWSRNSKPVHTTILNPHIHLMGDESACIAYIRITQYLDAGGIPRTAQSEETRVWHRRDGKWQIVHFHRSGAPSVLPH
SMILES,inhibition [%]
O=c1ccc2cc(O)ccc2o1,15
CCC(=O)OC(CC(=O)[O-])C[N+](C)(C)C (centres unmarked),13
Cc1[nH]cnc1CN1CCc2c(c3ccccc3n2C)C1=O,-8
CC(C)=CCC[C@](C)(O[C@@H]1O[C@H](CO[C@@H]2O[C@H](CO)[C@@H](O)[C@H](O)[C@H]2O)[C@@H](O)[C@H](O)[C@H]1O)[C@H]1CC[C@]2(C)[C@@H]1[C@H](O)C[C@@H]1[C@@]3(C)CC[C@H](O[C@@H]4O[C@H](CO)[C@@H](O)[C@H](O)[C@H]4O[C@@H]4O[C@H](CO)[C@@H](O)[C@H](O)[C@H]4O)C(C)(C)[C@@H]3CC[C@]12C,-7
Nc1nc2ncc(CNc3ccc(C(=O)N[C@@H](CCC(=O)O)C(=O)O)cc3)nc2c(=O)[nH]1,3
CSc1ccc(OCc2ncc([N+](=O)[O-])n2C)cc1,-6
O=C(/C=C/C=C/c1ccc2c(c1)OCO2)N1CCCCC1,-14
O=C(O)[C@H](O)[C@@H](O)C(=O)O,-0.32

# Set 4 — action: inhibitor; concentration: 1 µM
# SMILES: CO[C@@H]1[C@H](N(C)C(=O)c2ccccc2)C[C@H]2O[C@]1(C)n1c3ccccc3c3c4c(c5c6ccccc6n2c5c31)C(=O)NC4
target,assay,inhibition
"Serine/threonine-protein kinase WNK2 (WNK2, Homo sapiens, UniProt Q9Y3S1)",enzyme activity,5%
"Dual specificity testis-specific protein kinase 1 (TESK1, Homo sapiens, UniProt Q15569)",enzyme activity,0%
"Protein-tyrosine kinase 2-beta (PTK2B, Homo sapiens, UniProt Q14289)",enzyme activity,71%
"Tyrosine-protein kinase JAK1, JH2 pseudokinase domain (JAK1, Homo sapiens, UniProt P23458)",,73%
"Serine/threonine-protein kinase SBK1 (SBK1, Homo sapiens, UniProt Q52WX2)",enzyme activity,40%
"Non-receptor tyrosine-protein kinase TNK1 (TNK1, Homo sapiens, UniProt Q13470)",enzyme activity,88%
"Protein-tyrosine kinase 6 (PTK6, Homo sapiens, UniProt Q13882)",enzyme activity,0%
"Phosphatidylinositol 3-kinase catalytic subunit type 3 (PIK3C3, Homo sapiens, UniProt Q8NEB9)",enzyme activity,10%

# A few entries again (set 3):
SMILES,inhibition [%]
Cc1[nH]cnc1CN1CCc2c(c3ccccc3n2C)C1=O,-8
Nc1nc2ncc(CNc3ccc(C(=O)N[C@@H](CCC(=O)O)C(=O)O)cc3)nc2c(=O)[nH]1,3
CC(C)=CCC[C@](C)(O[C@@H]1O[C@H](CO[C@@H]2O[C@H](CO)[C@@H](O)[C@H](O)[C@H]2O)[C@@H](O)[C@H](O)[C@H]1O)[C@H]1CC[C@]2(C)[C@@H]1[C@H](O)C[C@@H]1[C@@]3(C)CC[C@H](O[C@@H]4O[C@H](CO)[C@@H](O)[C@H](O)[C@H]4O[C@@H]4O[C@H](CO)[C@@H](O)[C@H](O)[C@H]4O)C(C)(C)[C@@H]3CC[C@]12C,-7
O=c1ccc2cc(O)ccc2o1,15
CSc1ccc(OCc2ncc([N+](=O)[O-])n2C)cc1,-6
O=C(/C=C/C=C/c1ccc2c(c1)OCO2)N1CCCCC1,-14
O=C(O)[C@H](O)[C@@H](O)C(=O)O,-0.32
